Measured values gathered from unrelated publications.
Compare with care: the assays were run in different laboratories. Converted amounts (≈) assume the structure as drawn.
Sequence of UniProt Q86UE8 (whole entry, looked up): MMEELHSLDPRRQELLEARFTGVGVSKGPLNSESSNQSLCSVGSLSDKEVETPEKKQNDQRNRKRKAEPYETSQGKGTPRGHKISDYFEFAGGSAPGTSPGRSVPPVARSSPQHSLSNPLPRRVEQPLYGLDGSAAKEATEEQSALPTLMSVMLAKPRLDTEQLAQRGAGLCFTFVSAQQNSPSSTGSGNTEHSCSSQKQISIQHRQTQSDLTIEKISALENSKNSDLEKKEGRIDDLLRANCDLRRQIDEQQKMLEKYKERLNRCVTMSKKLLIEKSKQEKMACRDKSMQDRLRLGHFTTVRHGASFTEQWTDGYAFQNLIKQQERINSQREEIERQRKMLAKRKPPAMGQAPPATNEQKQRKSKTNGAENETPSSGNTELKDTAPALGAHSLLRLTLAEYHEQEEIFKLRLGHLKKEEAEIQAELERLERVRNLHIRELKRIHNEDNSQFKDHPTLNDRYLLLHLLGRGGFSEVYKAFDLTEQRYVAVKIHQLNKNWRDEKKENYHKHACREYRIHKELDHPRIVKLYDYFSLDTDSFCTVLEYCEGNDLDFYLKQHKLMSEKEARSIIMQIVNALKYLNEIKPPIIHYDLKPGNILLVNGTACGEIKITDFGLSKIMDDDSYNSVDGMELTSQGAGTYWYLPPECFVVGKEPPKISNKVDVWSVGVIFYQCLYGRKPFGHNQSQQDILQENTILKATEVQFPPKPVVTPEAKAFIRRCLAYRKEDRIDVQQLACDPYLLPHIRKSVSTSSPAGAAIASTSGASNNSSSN
Sequence of UniProt P37023 (whole entry, looked up): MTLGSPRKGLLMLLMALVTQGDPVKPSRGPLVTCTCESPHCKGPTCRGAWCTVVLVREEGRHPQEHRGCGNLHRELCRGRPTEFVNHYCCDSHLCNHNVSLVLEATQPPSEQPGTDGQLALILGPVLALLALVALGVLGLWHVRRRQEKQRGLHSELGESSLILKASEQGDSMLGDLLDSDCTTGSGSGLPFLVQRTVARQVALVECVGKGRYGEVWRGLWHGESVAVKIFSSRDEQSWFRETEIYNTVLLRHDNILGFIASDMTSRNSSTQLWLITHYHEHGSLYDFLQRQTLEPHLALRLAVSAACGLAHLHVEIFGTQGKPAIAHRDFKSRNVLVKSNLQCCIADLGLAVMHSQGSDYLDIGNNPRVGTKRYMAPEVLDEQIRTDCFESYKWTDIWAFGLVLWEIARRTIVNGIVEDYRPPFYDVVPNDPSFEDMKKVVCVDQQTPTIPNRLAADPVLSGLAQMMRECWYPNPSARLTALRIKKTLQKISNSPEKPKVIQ
Sequence of UniProt P23458 (whole entry, looked up): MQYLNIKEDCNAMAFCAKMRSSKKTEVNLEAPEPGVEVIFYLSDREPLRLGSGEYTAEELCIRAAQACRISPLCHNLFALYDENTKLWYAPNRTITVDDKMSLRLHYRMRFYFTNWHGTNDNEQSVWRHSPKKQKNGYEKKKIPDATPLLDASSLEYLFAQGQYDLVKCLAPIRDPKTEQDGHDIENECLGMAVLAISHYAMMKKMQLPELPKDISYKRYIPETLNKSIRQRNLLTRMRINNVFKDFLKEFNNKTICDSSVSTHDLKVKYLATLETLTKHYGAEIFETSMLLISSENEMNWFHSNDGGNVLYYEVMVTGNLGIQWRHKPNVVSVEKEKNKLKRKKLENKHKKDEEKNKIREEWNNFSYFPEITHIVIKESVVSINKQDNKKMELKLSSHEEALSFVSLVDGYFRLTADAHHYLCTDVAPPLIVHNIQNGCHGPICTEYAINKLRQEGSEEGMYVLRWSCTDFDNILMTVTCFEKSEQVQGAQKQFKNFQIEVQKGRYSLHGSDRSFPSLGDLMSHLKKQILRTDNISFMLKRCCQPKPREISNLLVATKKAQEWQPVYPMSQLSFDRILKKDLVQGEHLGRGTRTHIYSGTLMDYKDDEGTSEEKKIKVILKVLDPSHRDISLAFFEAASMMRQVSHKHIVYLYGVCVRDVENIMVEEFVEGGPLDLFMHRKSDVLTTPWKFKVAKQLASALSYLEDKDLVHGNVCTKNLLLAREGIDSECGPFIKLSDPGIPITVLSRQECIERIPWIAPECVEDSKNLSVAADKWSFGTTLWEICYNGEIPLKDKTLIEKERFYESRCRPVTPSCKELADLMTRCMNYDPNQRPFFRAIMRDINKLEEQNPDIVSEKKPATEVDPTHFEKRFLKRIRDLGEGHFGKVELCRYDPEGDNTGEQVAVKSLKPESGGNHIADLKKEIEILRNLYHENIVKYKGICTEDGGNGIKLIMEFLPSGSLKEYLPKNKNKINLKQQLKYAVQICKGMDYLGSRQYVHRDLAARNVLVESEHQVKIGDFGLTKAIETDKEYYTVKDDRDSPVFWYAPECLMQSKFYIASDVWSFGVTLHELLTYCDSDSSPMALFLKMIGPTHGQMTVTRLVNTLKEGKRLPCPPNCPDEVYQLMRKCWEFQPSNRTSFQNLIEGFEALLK
Sequence of UniProt P27037 (whole entry, looked up): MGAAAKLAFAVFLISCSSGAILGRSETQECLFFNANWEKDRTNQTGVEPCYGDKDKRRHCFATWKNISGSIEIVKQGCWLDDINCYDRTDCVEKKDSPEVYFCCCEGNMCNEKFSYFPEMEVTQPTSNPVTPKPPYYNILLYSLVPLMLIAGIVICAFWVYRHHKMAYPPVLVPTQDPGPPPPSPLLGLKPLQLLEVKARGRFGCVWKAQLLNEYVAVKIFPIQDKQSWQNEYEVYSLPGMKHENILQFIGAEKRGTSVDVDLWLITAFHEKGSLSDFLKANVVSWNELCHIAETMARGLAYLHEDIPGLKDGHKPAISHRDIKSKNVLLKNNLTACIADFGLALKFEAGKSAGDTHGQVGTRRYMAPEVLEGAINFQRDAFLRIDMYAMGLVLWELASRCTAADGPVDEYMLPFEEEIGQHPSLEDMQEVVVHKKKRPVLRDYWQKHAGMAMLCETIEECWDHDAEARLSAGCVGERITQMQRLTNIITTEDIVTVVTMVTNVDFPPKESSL

SMILES	tested on	assay	system	setting	quantity	value
CC[C@H](C)[C@H]1C(=O)N[C@H](Cc2ccc(O)cc2)C(=O)N[C@H](C(=O)O)CSSC[C@H](N)C(=O)N[C@@H](Cc2ccccc2)C(=O)N[C@@H](C(C)C)C(=O)N[C@@H](CC(C)C)C(=O)N2CCC[C@H]2C(=O)N[C@@H](CC(N)=O)C(=O)N[C@@H](Cc2ccc(O)cc2)C(=O)N1C	–	–	aqueous buffer	18 h, pH 7.4	thermodynamic solubility	641 µM (≈ 799 µg/mL)
CC(C)CC(=O)OC[C@H]1O[C@@](C#N)(c2ccc3c(N)ncnn23)[C@H](O)[C@@H]1O	–	metabolic stability	rat, hepatocytes	5 µM	half-life	< 0.0727 h
C[C@]12CC[C@H](n3ccnc3)CC1=CC[C@@H]1[C@@H]2CC[C@]2(C)C(n3cnc4ccccc43)=CC[C@@H]12.Cl.Cl	–	–	male CD-1 mouse, plasma	oral, 10 mg/kg	bioavailability	> 100%
O=C/C=C/c1ccccc1	–	metabolic stability	human, liver microsomes	10 µM, pH 7.4	half-life	0.0575 h
Cc1nn(C)cc1-c1nc2c(N3CCN(Cc4ccc(Cl)cc4)CC3)c(Cl)cnc2[nH]1	Tyrosine-protein kinase JAK1, JH2 (JAK1, Homo sapiens, UniProt P23458)	binding, competition with immobilised ligand	–	1 µM	remaining binding	100%
NCCNC(=O)O[C@H]1CCC[C@@]2(C1)OOC1(O2)C2CC3CC(C2)CC1C3 (stereo partly shown)	–	–	male CD-1 mouse, plasma	oral, 10 mg/kg	Tmax	2 h
CC[C@H](C)[C@@H]1NC(=O)[C@H](CO)NC(=O)[C@H](CC(C)C)NC(=O)[C@H](CC(C)C)N(C)C(=O)[C@@H](Cc2ccc(O)cc2)NC(=O)[C@@H](Cc2ccc(O)cc2)NC(=O)CSC[C@@H](C(=O)O)NC(=O)CNC(=O)[C@@H](C(C)C)NC(=O)[C@H]2CCCN2C(=O)[C@H](C)NC1=O	–	–	aqueous buffer	pH 7.4	solubility	702 µM (≈ 879 µg/mL)
CCC[C@@](N)(CO)CCc1ccc(OCCCCCC(C)C)cc1	–	–	dog, plasma	intravenous, 0.25 mg/kg	Cmax	33.8 nM
CC[C@H](C)[C@H]1C(=O)N[C@@H](Cc2ccc(O)cc2)C(=O)N2CCC[C@H]2C(=O)N[C@H]([C@H](C)O)C(=O)N[C@@H](CC(C)C)C(=O)N[C@@H](C(C)C)C(=O)N[C@@H](C)C(=O)N[C@@H](C)C(=O)N[C@@H](CO)C(=O)N[C@@H](CCC(=O)O)C(=O)N[C@H](CC(=O)O)C(=O)N[C@H](C(=O)O)CSSC[C@H](N)C(=O)N1C	–	–	aqueous buffer	18 h, pH 7.4	thermodynamic solubility	678 µM (≈ 947 µg/mL)
Cc1[nH]c(C)c(S(=O)(=O)Nc2ccc(S(F)(F)(F)(F)F)c(Cl)c2)c1C(=O)N1CCC(F)(F)C1	–	metabolic stability	mouse, liver microsomes	–	half-life	0.45 h
CCCC[C@@H]1NC(=O)[C@H](Cc2ccc(O)cc2)NC(=O)[C@@H]2CCCN2C(=O)[C@H](CC(=O)O)NC(=O)[C@H](C)NC(=O)[C@H](Cc2ccccc2)NC(=O)[C@@H]2CSCCC(=O)N3CN(CN(C3)C(=O)CCSC[C@H](NC(C)=O)C(=O)N[C@@H](CC(C)(C)C)C(=O)N[C@@H](CCC(=O)O)C(=O)N[C@@H](CCC(=O)O)C(=O)N[C@H](CCCCNC(=O)CCc3cn(CCOCCOCCOCCN(CCOCCOCCOCCC(=O)N[C@H]4CSCCC(=O)N5CN6CN(C5)C(=O)CCSC[C@H](NC(=O)[C@@H](CC(=O)O)NC(=O)[C@H](Cc5cccc7ccccc57)NC(=O)[C@@H]5CCCN5C4=O)C(=O)N[C@@H](CCSC)C(=O)N[C@@H](CCCCNC(=N)N)C(=O)N[C@@H](CC(=O)O)C(=O)N[C@@H](Cc4c[nH]c5ccccc45)C(=O)N[C@@H](CO)C(=O)N[C@@H]([C@@H](C)O)C(=O)N4CCC[C@H]4C(=O)N4C[C@H](O)C[C@H]4C(=O)N[C@@H](Cc4c[nH]c5ccccc45)C(=O)N[C@H](C(N)=O)CSCCC6=O)CCOCCOCCOCCn4cc(CCC(=O)NCCCC[C@H]5NC(=O)[C@H](CCC(=O)O)NC(=O)[C@H](CCC(=O)O)NC(=O)[C@H](CC(C)(C)C)NC(=O)[C@@H](NC(C)=O)CSCCC(=O)N6CN7CN(C6)C(=O)CCSC[C@H](NC(=O)[C@H](Cc6ccc(O)cc6)NC(=O)[C@@H]6CCCN6C5=O)C(=O)N[C@@H](Cc5ccccc5)C(=O)N[C@@H](C)C(=O)N[C@@H](CC(=O)O)C(=O)N5CCC[C@H]5C(=O)N[C@@H](Cc5ccc(O)cc5)C(=O)N[C@@H](CCCC)C(=O)N[C@H](C(N)=O)CSCCC7=O)nn4)nn3)C(=O)N3CCC[C@H]3C(=O)N[C@@H](Cc3ccc(O)cc3)C(=O)N2)C(=O)CCSC[C@@H](C(N)=O)NC1=O	–	–	rat, plasma	intravenous, 2 mg/kg	Vd	1.2 L/kg
CC(C)C[C@@H]1NC(=O)[C@H]([C@@H](C)O)NC(=O)[C@H](C(C)C)NC(=O)[C@H](CC(C)C)NC(=O)[C@@H](C(C)C)N(C)C(=O)[C@H]2CCCN2C(=O)[C@@H](N)CSSC[C@@H](C(=O)O)NC(=O)[C@H]2CCCN2C(=O)[C@H](Cc2ccccc2)NC1=O	–	–	aqueous buffer	18 h, pH 7.4	solubility	692 µM (≈ 763 µg/mL)
CC(C)C[C@H](NC(=O)[C@H](Cc1ccccc1)NC(=O)[C@H](Cc1ccccc1)NC(=O)Cc1ccc(-c2ccccc2)cc1)C(=O)N[C@@H](CCCCN)C(=O)N[C@@H](CCCNC(=N)N)C(=O)N[C@H](C(=O)N[C@@H](Cc1c[nH]c2ccccc12)C(=O)N[C@@H](CCCCN)C(=O)N[C@@H](CCCNC(=N)N)C(=O)O)C(C)C	–	metabolic stability	monkey, liver microsomes	1 h	compound remaining	7.6%
[2H]c1c([2H])c([C@]2([2H])CCCN2C(=O)C(C)(C)Oc2ccc3cn[nH]c3c2)c([2H])c([2H])c1C([2H])([2H])[2H]	Serine/threonine-protein kinase tousled-like 2 (TLK2, Homo sapiens, UniProt Q86UE8)	binding, competition with immobilised ligand	–	1 µM	remaining binding	98%
CCCC[C@@H]1NC(=O)[C@H](Cc2ccc(O)cc2)NC(=O)[C@@H]2CCCN2C(=O)[C@H](CC(=O)O)NC(=O)[C@H](C)NC(=O)[C@H](Cc2ccccc2)NC(=O)[C@@H]2CSCCC(=O)N3CN(CN(C3)C(=O)CCSC[C@H](NC(C)=O)C(=O)N[C@@H](CC(C)(C)C)C(=O)N[C@@H](CCC(=O)O)C(=O)N[C@@H](CCC(=O)O)C(=O)N[C@H](CCCCNC(=O)CCc3cn(CCOCCOCCOCCOCCOCCC(=O)N[C@H]4CSCCC(=O)N5CN6CN(C5)C(=O)CCSC[C@H](NC(=O)[C@@H](CC(=O)O)NC(=O)[C@H](Cc5cccc7ccccc57)NC(=O)[C@@H]5CCCN5C4=O)C(=O)N[C@@H](CCSC)C(=O)N[C@@H](CCCCNC(=N)N)C(=O)N[C@@H](CC(=O)O)C(=O)N[C@@H](Cc4c[nH]c5ccccc45)C(=O)N[C@@H](CO)C(=O)N[C@@H]([C@@H](C)O)C(=O)N4CCC[C@H]4C(=O)N4C[C@H](O)C[C@H]4C(=O)N[C@@H](Cc4c[nH]c5ccccc45)C(=O)N[C@H](C(N)=O)CSCCC6=O)nn3)C(=O)N3CCC[C@H]3C(=O)N[C@@H](Cc3ccc(O)cc3)C(=O)N2)C(=O)CCSC[C@@H](C(N)=O)NC1=O	–	–	rat, plasma	intravenous, 2 mg/kg	Vd	0.86 L/kg
Nc1ncc(-c2nc(N3CCOCC3)nc(N3CCOCC3)n2)c(C(F)F)n1	Activin receptor type-1-like (ACVRL1, Homo sapiens, UniProt P37023)	binding, competition with immobilised ligand	–	10 µM	remaining binding	73%
NC(=O)[C@@H]1CC(F)(F)CN1C(=O)c1ccc(N2CC(F)(F)C2)c(OCC2CC2)n1	–	–	C57BL/6 mouse, plasma	intravenous	Vd	3.5 L/kg
CC(C)C[C@H]1C(=O)N2CCC[C@H]2C(=O)N[C@@H](CC(N)=O)C(=O)N[C@H](Cc2ccc(O)cc2)C(=O)N[C@H]([C@H](C)O)C(=O)N[C@@H](Cc2ccc(O)cc2)C(=O)N[C@H](C(=O)O)CSSC[C@H](N)C(=O)N[C@@H](Cc2ccccc2)C(=O)N[C@@H](C(C)C)C(=O)N1C	–	–	aqueous buffer	18 h, pH 7.4	solubility	759 µM (≈ 936 µg/mL)
COc1ncccc1-c1cnn2ccc(N3CCN(C(=O)OC(C)C)CC3)nc12	Activin receptor type-2A (ACVR2A, Homo sapiens, UniProt P27037)	binding, competition with immobilised ligand	–	1 µM	remaining binding	87%
CC(C)(N)CNC(=O)O[C@H]1CCC[C@@]2(C1)OOC1(O2)C2CC3CC(C2)CC1C3 (stereo partly shown)	–	–	male CD-1 mouse, plasma	intravenous, 3 mg/kg	half-life	1.21 h
CC[C@H](C)[C@H]1C(=O)N[C@@H]([C@@H](C)O)C(=O)NCC(=O)NCC(=O)N[C@@H](C)C(=O)N[C@@H](CC(C)C)C(=O)N[C@@H](C(C)C)C(=O)N[C@@H](CC(C)C)C(=O)N2CCC[C@@H]2C(=O)N[C@H](Cc2ccc(O)cc2)C(=O)N[C@H](CC(C)C)C(=O)N1C	–	–	aqueous buffer	18 h, pH 7.4	solubility	479 µM (≈ 532 µg/mL)
COc1ccc(F)cc1C(=O)NCc1ccc(-c2nn([C@@H](C)C(F)(F)F)c(N)c2C(N)=O)cc1	–	–	human, plasma	oral, 200 mg, single dose	Tmax	3 h
CC(C)C[C@H]1C(=O)N[C@@H]([C@@H](C)O)C(=O)N[C@@H](CO)C(=O)N[C@@H](C)C(=O)N[C@H]([C@H](C)O)C(=O)N2CCC[C@H]2C(=O)N(C)[C@@H](CC(C)C)C(=O)N[C@H](Cc2ccc(O)cc2)C(=O)N[C@H](Cc2ccccc2)C(=O)N[C@H](C(C)C)C(=O)NCC(=O)N1C	–	–	aqueous buffer	18 h, pH 7.4	solubility	182 µM (≈ 214 µg/mL)
N=c1c2c(-c3ccccc3)c(-c3ccccc3)n(Cc3ccccc3)c2ncn1[C@H]1CC[C@H](O)CC1	–	–	female minipig, plasma	intravenous, 0.25 mg/kg, single dose	AUC(0-t)	14500 ng·h/mL
C[C@H]1COCCN1c1nc(NCc2cccnc2C(F)(F)F)c2cccnc2n1	–	metabolic stability	monkey, hepatocytes	–	hepatocyte CLint	4.6 µL/min/10⁶ cells

For quick reference, copied from above:
SMILES	tested on	assay	system	setting	quantity	value
CC(C)C[C@@H]1NC(=O)[C@H]([C@@H](C)O)NC(=O)[C@H](C(C)C)NC(=O)[C@H](CC(C)C)NC(=O)[C@@H](C(C)C)N(C)C(=O)[C@H]2CCCN2C(=O)[C@@H](N)CSSC[C@@H](C(=O)O)NC(=O)[C@H]2CCCN2C(=O)[C@H](Cc2ccccc2)NC1=O	–	–	aqueous buffer	18 h, pH 7.4	solubility	692 µM (≈ 763 µg/mL)
CC(C)C[C@H](NC(=O)[C@H](Cc1ccccc1)NC(=O)[C@H](Cc1ccccc1)NC(=O)Cc1ccc(-c2ccccc2)cc1)C(=O)N[C@@H](CCCCN)C(=O)N[C@@H](CCCNC(=N)N)C(=O)N[C@H](C(=O)N[C@@H](Cc1c[nH]c2ccccc12)C(=O)N[C@@H](CCCCN)C(=O)N[C@@H](CCCNC(=N)N)C(=O)O)C(C)C	–	metabolic stability	monkey, liver microsomes	1 h	compound remaining	7.6%
[2H]c1c([2H])c([C@]2([2H])CCCN2C(=O)C(C)(C)Oc2ccc3cn[nH]c3c2)c([2H])c([2H])c1C([2H])([2H])[2H]	Serine/threonine-protein kinase tousled-like 2 (TLK2, Homo sapiens, UniProt Q86UE8)	binding, competition with immobilised ligand	–	1 µM	remaining binding	98%
